# Measured values from different studies.
# Lines come from different studies, so protocols differ. Numbers after ± are the reported error.
Compound,cell line,test,test system,setting,scale,measurement,result
O=C(c1cc(Cc2n[nH]c(=O)c3ccccc23)ccc1F)N1CCN(C(=O)C2CC2)CC1,MCF-10A,necrosis,,24 h,,EC50,> 316 µM
CN(Cc1cnc2nc(N)nc(N)c2n1)c1ccc(C(=O)N[C@@H](CCC(=O)O)C(=O)O)cc1,LX-2 stellate cells,"cell migration, confocal high-content imaging","liver microfluidic device with hepatocytes, EA.hy926, U-937","30 nM, with: dexamethasone 100 nM",reference: vehicle,time to significant decrease,7 to 17 days
O=C(O[C@@H]1Cc2c(O)cc(O)cc2O[C@@H]1c1cc(O)c(O)c(O)c1)c1cc(O)c(O)c(O)c1,Caco-2,,,"concentration not given, 3 h",reference: fed,cellular accumulation,1.38 ± 0.092%
O=c1c(O)c(-c2ccc(O)c(O)c2)oc2cc(O)cc(O)c12,human infant foreskin fibroblasts,trypan blue exclusion,,"36 µM, 72 h, 10% FBS",,viability,94 ± 7.67%
C#C[C@]1(CO)O[C@@H](n2cnc3c(N)nc(F)nc32)C[C@@H]1O,MDCK-II monolayer,,,"25 µM, with: EDTA",,Papp basolateral to apical,2.88 ± 0.26 ×10⁻⁶ cm/s
COc1cc2c(Nc3ccc(Br)cc3F)ncnc2cc1OCC1CCN(C)CC1,hiPSC-derived cardiomyocytes,,,72 h,,concentration of contraction prolongation,≥ 3.7 µM
O=c1c(O)c(-c2cccc(I)c2)oc2cc(O)cc(O)c12,human infant foreskin fibroblasts,trypan blue exclusion,,"13 µM, 72 h, 10% FBS",,viability,106 ± 5.79%
C=C(C[C@H](N)C(=O)O)C(=O)N1CCCCC1,MDA-MB-231,necrosis,,24 h,,EC50,> 316 µM
CCCCCCCCCCCC[N+](C)(C)C,horse erythrocytes,haemolysis,,,,CC50,714 µM
C=C(C[C@H](N)C(=O)O)C(=O)NCc1ccc(F)cc1,MCF-10A,necrosis,,24 h,,EC50,> 316 µM
CO[C@@H]1[C@H](O)[C@@H](COP(=O)(O)OP(=O)([O-])OP(=O)(O)OP(=O)(O)OC[C@H]2O[C@@H](n3cnc4c(=O)[nH]c(N)nc43)[C@H](O)[C@@H]2O)O[C@H]1n1c[n+](C)c2c(O)nc(N)nc21,human immature dendritic cells,"translation, measured: luciferase",,,,time of maximal expression,5.3 ± 0.05 h
C=C(C[C@@H]1CCSc2ccccc21)c1ccccc1C,RAW264.7,"cytotoxicity, CCK-8",,24 h,,IC50,80.6 µM
O=c1c(O)c(-c2ccc(O)cc2)oc2cc(O)cc(O)c12,human infant foreskin fibroblasts,trypan blue exclusion,,"36 µM, 72 h, 10% FBS",,viability,106 ± 5.66%
C[S+](C)[O-],HEK293T,,,concentration not given,,viability,51%
C=C(C[C@H](N)C(=O)O)C(N)=O,MDA-MB-231,necrosis,,24 h,,EC50,8.91 µM
C=C(C[C@@H]1CCOc2ccccc21)c1c(C)cc(C)cc1C,RAW264.7,"cytotoxicity, CCK-8",,24 h,,IC50,74.1 µM
Cc1c2oc3c(C)ccc(C(=O)N[C@@H]4C(=O)N[C@H](C(C)C)C(=O)N5CCC[C@H]5C(=O)N(C)CC(=O)N(C)[C@@H](C(C)C)C(=O)O[C@@H]4C)c3nc-2c(C(=O)N[C@@H]2C(=O)N[C@H](C(C)C)C(=O)N3CCC[C@H]3C(=O)N(C)CC(=O)N(C)[C@@H](C(C)C)C(=O)O[C@@H]2C)c(N)c1=O,Caco-2,CCK-8,,"1 to 6 µM, 5 h",,viability,> 95%
Cc1ccc(C)c(-c2csc(NS(=O)(=O)c3ccc(C(=O)N4CCCCC4)cc3)n2)c1,THP-1,"cell growth or viability, MTT",,"5 µM, 18 h",,viability,< 80%
C=C(C[C@@H]1CCSc2ccc(F)cc21)c1ccccc1,RAW264.7,"cytotoxicity, CCK-8",,24 h,,IC50,80.4 µM
CN1CCN([C@@H](c2ccccc2)c2ccc(Cl)cc2)CC1,Huh-7.5.1,"cell growth or viability, ATP luminescence",,,,CC50,33 µM
COc1ccc(-c2oc3cc(O)cc(O)c3c(=O)c2O)cc1,human infant foreskin fibroblasts,trypan blue exclusion,,"17 µM, 72 h, 10% FBS",,viability,83.9 ± 1.31%
C[C@@H]1[C@H](O)[C@@H](C)/C=C/C=C/C=C/C=C/C=C/C=C/C=C/[C@H](O[C@@H]2O[C@H](C)[C@@H](O)[C@H](N)[C@@H]2O)C[C@@H]2O[C@](O)(C[C@@H](O)C[C@@H](O)[C@H](O)CC[C@@H](O)C[C@@H](O)CC(=O)O[C@H]1C)C[C@H](O)[C@H]2C(=O)O,THP-1,"cell growth or viability, MTT",,"72 h, pH 7.4",,CC50,10.7 µM
CCCCCCCCCCCCCC(=O)NCC(=O)O,Caco-2,WST-1,,"50 and 500 µM, 24 h",,cytotoxicity,not toxic
CC/C(=C(\c1ccccc1)c1ccc(OCCN(C)C)cc1)c1ccccc1,MCF-10A,necrosis,,24 h,,EC50,269 µM
O=C(Cc1c(-c2ccccc2)n[nH]c1-c1ccccc1)NO,SH-SY5Y,,serum-free DMEM,"30 µM, 24 h, 1% DMSO",,viability,92%
C=C(C[C@H](N)C(=O)O)C(=O)NCc1ccccc1,MCF-10A,necrosis,,24 h,,EC50,> 316 µM
O=c1c(O)c(-c2cccc(-c3ccccc3)c2)oc2cc(O)cc(O)c12,human infant foreskin fibroblasts,trypan blue exclusion,,"6 µM, 72 h, 10% FBS",,viability,53.1 ± 9.54%
C=C(C[C@@H]1CCOc2ccc(OC)cc21)c1ccccc1,RAW264.7,"cytotoxicity, CCK-8",,24 h,,IC50,178 µM
O=c1c(O)c(-c2ccccc2)oc2cc(O)cc(O)c12,human infant foreskin fibroblasts,trypan blue exclusion,,"20 µM, 72 h, 10% FBS",,viability,92.6 ± 5.58%
C=C(C[C@H](N)C(=O)O)C(=O)Nc1ccc(F)cc1,MDA-MB-231,necrosis,,24 h,,EC50,> 316 µM
CCCCCCCC(=O)OC,Caco-2,WST-1,,"50 and 500 µM, 24 h",,cytotoxicity,not toxic
C=C(C[C@H](N)C(=O)O)C(=O)Nc1ccc(Cl)cc1,MDA-MB-231,necrosis,,24 h,,EC50,> 316 µM
CCCCCCCCCCCCOS(=O)(=O)[O-].[Na+],HEK293-A,whole-cell patch clamp,,,,membrane partition constant,23000 M⁻¹

# Repeated from above:
Compound,cell line,test,test system,setting,scale,measurement,result
C=C(C[C@@H]1CCSc2ccccc21)c1ccccc1C,RAW264.7,"cytotoxicity, CCK-8",,24 h,,IC50,80.6 µM
O=c1c(O)c(-c2ccc(O)cc2)oc2cc(O)cc(O)c12,human infant foreskin fibroblasts,trypan blue exclusion,,"36 µM, 72 h, 10% FBS",,viability,106 ± 5.66%
